Results pooled from the literature.
Each numbered part is a random draw from the data of one study; scales do not carry over between parts. Changes are numbered by the printed parent chain.

Series 1
Target: Fragile X messenger ribonucleoprotein 1, C-terminal low-complexity region (Fmr1, Mus musculus, UniProt P35922)
Technique: RNA Bind-n-Seq
Form: RNA
Sample: in vitro
Concentration: 200 nM
Setting: whole 134-nt RNA, ends assumed
Added: 150 mM LiCl
Relative to: input library
Direction: higher = stronger binding
Library: 7-deaza-guanosine replaces G
All sequences stand within: GGGAGUUCUACAGUCCGACGAUC … UGGAAUUCUCGGGUGUCAAGG
Oligonucleotide	log2 enrichment
ACCACGCAGGUGGGCAUCUUUGGGAAGUGGGGCAAGGGGGGGAUAGGGAGGGGGGUAACACUUUGGGAACAGGUGGUCCCAGGUCGUUUC	1.55
GCAGGAAGUAAAAACAAAUGGAAAUGCUUCGGAUAGUGGCAGGGGUGGGGGUUGCUAAUGAAAGGGUGGGAUGGGAGUGGGUAAAGAGUU	1.17
ACGCUCCAUGAAAGCUAGGAGGGAGUGAAAUAUCAGUGAUCAUCGCAAGGAAGGAGGCAGACAAGAGUAAGGCACACCUGACUCUUAGGA	-2.02
GUCCUGUGCUACACAUCGUAUGUACCGAAUCGGGUUUUUUUGGGUUUUUGGGAAAGGGAAAGUAUUAUGUUACGCCGUUCGGAUCUGCAC	-0.773
CUGUGCUACACAUCGUAUGUACCGAAUCGGGGAAAAAGGGGAAAAAAAGGGGAAAAAGGGGAAAGUAUUAUGUUACGCCGUUCGGAUCUG	1.12
GCAGGAAGUAAAAACAAAUGGAAAUGCUUCGGAUAGUGGCAGGGGUGGGGGUUGCUAAGGAAAGGGUGGGAGGGGAGUGGGUAAAGAGUU	1.02
CCUCAAGUCCUGUGCUACACAUCGUAUGUACCGAAUCGGGUGGGUGGGGUGGAAAGUAUUAUGUUACGCCGUUCGGAUCUGCACUUCCAG	-1.19
UGUGCUACACAUCGUAUGUACCGAAUCGGGGCCCCCCCGGGGCCCCCCCGGGGCCCCCCCGGGAAAGUAUUAUGUUACGCCGUUCGGAUC	-1.71

Series 2
Target: Prothrombin, mature alpha-thrombin (F2, Homo sapiens, UniProt P00734)
Technique: aptamer microarray, sandwich
Form: DNA with 2'F-ANA
Sample: in vitro
Concentration: 200 nM
Setting: whole 15-mer aptamer, many near background
Added: Cy3 exosite-II aptamer, 400 nM
Direction: higher = stronger binding
Oligonucleotide: GGTTGGTGTGGTTGG
Modification	mean fluorescence intensity
2'F-ANA at 1 3 4 5 7 10 12 13 15	64.4 a.u.
2'F-ANA at 1 2 4 5 7 8 14 15	50 a.u.
2'F-ANA at 1 2 3 6 7 10 11 13 15	61.3 a.u.
2'F-ANA at 2 4 6 9 10 15	93.2 a.u.
2'F-ANA at 7 9	597 a.u.
2'F-ANA at 1 4 5 7 9 13 15	48.5 a.u.
2'F-ANA at 2 3 4 5 6 7 11 12 14 15	53.9 a.u.
2'F-ANA at 3 5 6 9 11 12 15	161 a.u.
2'F-ANA at 1 2 4 5 6 11 13	51.7 a.u.
2'F-ANA at 3 4 6 9 11 12 13 14 15	221 a.u.

Series 3
Target: CCND2, cyclin fold, Cln2 fusion (human)
Technique: yeast growth competition, sequencing
Sample: yeast
Setting: weak parent motif
Relative to: not given
Direction: higher = stronger binding
Starting sequence: CDC6 docking peptide (human); TLKGRRLVFDNQL
Substitution	normalised enrichment score
L13E	0.567
T1D	-0.253
K3V	0.618
K3T	0.493
K3E	0.23
F9H	0.5

Mixed results
Substance	target	assay	system	conditions	how to read	endpoint	result
PhoQ, residues 284 288 289 292 302 303 QWQEDG	PhoP, residues 12 14 15 18 19 LWHSL (Escherichia coli, UniProt P23836)	Sort-seq, refers to: YFP reporter	E. coli	PhoQ-PhoP variant library, added: 10 µM Mg2+	relative to: high Mg2+ state, higher = stronger signaling	fold induction	16.1

A few entries again (series 2):
Modification	mean fluorescence intensity
2'F-ANA at 2 4 6 9 10 15	93.2 a.u.
2'F-ANA at 1 2 4 5 7 8 14 15	50 a.u.
2'F-ANA at 3 4 6 9 11 12 13 14 15	221 a.u.
